Assay results collected from several papers.
Each line is one published result; not all experiments were run side by side.
Target: Serine/threonine-protein kinase PAK 3 (PAK3, Homo sapiens, UniProt O75914)

Cc1cccc(O[C@H]2CCC[C@@H](C(C)CNCc3ccncc3)C2)c1 (relative stereo) — inhibition (enzyme activity, inhibitor; 10 µM): -13%
Cc1nc2c(F)cc(-c3nc(Nc4ccc(CNC(=O)CCCCCCC(=O)NO)cc4)ncc3F)cc2n1C(C)C — inhibition (enzyme activity, inhibitor; 1 µM): 47%
C[C@H]1CN(C(=O)c2cn(-c3ccnc(N)n3)c3cc(C#CC4(O)CCCCC4)ccc23)CCN1 — inhibition (enzyme activity, inhibitor, FRET; 1 µM): 6%
Nc1ncc(-c2cc(-c3cnn(CC(F)(F)F)c3)ncc2F)nc1C(=O)NC1CNCC(F)C1 (stereo not drawn) — remaining activity (enzyme activity; 1 µM; relative to: DMSO control): 95.4%
CNC(=O)C1CCN(c2cc(C)c(F)cc2NC(=O)c2ccc(-c3cc(O)ccc3C)c(C)c2)CC1 — remaining binding (binding, competition with immobilised ligand; 1 µM): 98%
COc1cc(Nc2nc(C)cc(-c3cnn4nc(OC)ccc34)n2)cc(C(F)(F)F)c1 — remaining activity (inhibitor; 1 µM; relative to: control): 85%
COc1c(Cl)cccc1Nc1c(-c2ccncc2C#C[C@@]2(C)CCCN2C(=O)/C=C/CN(C)C)[nH]c2c1C(=O)NCC2 — remaining binding (cell-free assay, competition with immobilised ligand; 3 µM): 87%
C=CC(=O)N1Cc2nc(-c3cc(-c4cc(Cl)cnc4Cl)c(F)cc3F)n(-c3ccncn3)c2C1 — inhibition (cell-free assay, inhibitor; 1 µM): 12.8%
O=C=[N][Ru-4]123([n]4c5ccc(O)cc5c5c6c(c7cc(F)c[n+]1c7c54)C(=O)NC6=O)[S+]1CC[S+]2CC[S+]3CC1 (stereo not drawn) — remaining activity (enzyme activity; 100 nM, human enzyme, added: 10 µM ATP; relative to: untreated): 98%
Cc1ccc(-c2c(/C=C(\C#N)C(=O)NC(C)C)n(CCCO)c3ncnc(N)c23)cc1 — remaining binding (cell-free assay, competition with immobilised ligand; 1 µM): 69%
COc1ccc(C(=O)/C=C/c2ccccc2-c2c[nH]c3ccc(C#N)cc23)c(O)c1 — inhibition (enzyme activity, inhibitor; 20 µM): 1%
NC(=O)[C@@H](O)C[C@H]1CCc2sc3ncnc(O[C@H]4CC[C@H](N5CCOCC5)CC4)c3c21 — inhibition (enzyme activity, inhibitor; 10 µM): 3%
Nc1ncc2c(n1)-c1c([nH]c3ccc(C4=CCOCC4)cc13)CCC2 — remaining binding (binding, competition with immobilised ligand; 1 µM): 100%
CCN1CCN(Cc2ccc(C(=O)Nc3ccc(C)c(NCc4cnc5[nH]ccc5c4OC)c3)cc2C(F)(F)F)CC1 — remaining binding (binding, competition with immobilised ligand; 1 µM): 80%
C=CC(=O)Nc1cccc(-c2cnc3[nH]cc(C(=O)NC(C)(C)C)c3n2)c1 — inhibition (enzyme activity, inhibitor; 0.1 µM): 5%

For quick reference, copied from above:
Cc1ccc(-c2c(/C=C(\C#N)C(=O)NC(C)C)n(CCCO)c3ncnc(N)c23)cc1 — remaining binding (cell-free assay, competition with immobilised ligand; 1 µM): 69%
CCN1CCN(Cc2ccc(C(=O)Nc3ccc(C)c(NCc4cnc5[nH]ccc5c4OC)c3)cc2C(F)(F)F)CC1 — remaining binding (binding, competition with immobilised ligand; 1 µM): 80%
